# Measured values pooled from the literature.
# “And” joins repeats or separate records; there may be more than shown.
Structure (SMILES),test system,conditions,measurement,result
CCCCN1C(=O)c2cccc3c(NCCCCCN4CCOCC4)ccc(c23)C1=O,DMSO,,absorption maximum,445 nm
CC(C)(C)NC(=O)C1CCN(Cc2cccc(N=Nc3ccc(F)cc3)c2)CC1,DMSO,"25 µM, 25 °C","absorption maximum, trans isomer",330 nm
COc1ccc2c(c1)O[B-]1(c3ccccc3)OC(=O)C(c3ccccc3)=N[N+]1=C2 (stereo not shown),toluene,,absorption maximum,427 nm
CCCCN1C(=O)c2cccc3c(NCCCCCCCCN4CCOCC4)ccc(c23)C1=O,dichloromethane,,absorption maximum,428 nm
C=Cc1ccc([B-]23OC(=O)C(c4ccccc4)=N[N+]2=Cc2ccc(N(CC)CC)cc2O3)cc1 (stereo not shown),toluene,,absorption maximum,473 nm
CCCCN1C(=O)c2cccc3c(NCCCCCCCCCCN4CCOCC4)ccc(c23)C1=O,DMSO,,absorption maximum,444 nm
CC1(C)C(=CC=C2CCCC(C=CC3=[N+](CCC[N+](C)(C)C)c4ccc(S(=O)(=O)O)cc4C3(C)C)=C2SCCOCCOCCC(=O)O)N(CCC[N+](C)(C)C)c2ccc(S(=O)(=O)O)cc21,DMSO,,absorption maximum wavelength,806 nm
C=C[C@]1(C)C[C@@H](OC(=O)CSc2ccc(NC(=O)c3ccco3)cc2)[C@]2(C)[C@H](C)CC[C@]3(CCC(=O)[C@H]32)[C@@H](C)[C@@H]1O,"M. gallisepticum-infected chickens, plasma","intramuscular, 40 mg/kg single dose",absorption half-life,7.46 min and 7.2 min
CCC1=[N+]2N=C(/C=C/c3ccccc3)C(=O)O[B-]2(c2ccccc2)Oc2cc(N(CC)CC)ccc21 (stereo not shown),toluene,,absorption maximum,497 nm
CC(C)(C)NC(=O)C1CCN(Cc2cccc(/N=N/c3ccc(F)c(F)c3F)c2)CC1,DMSO,"25 µM, 25 °C","absorption maximum, cis isomer",431 nm
COc1ccc2nc(-c3ccc(N(C)C)cc3)sc2c1,PBS,free dye,absorption maximum wavelength,301 nm
CCCCN1C(=O)c2cccc3c(NCCCN4CCOCC4)ccc(c23)C1=O,acetonitrile,,absorption maximum,434 nm
CCC1=[N+]2N=C(c3ccccc3)C(=O)O[B-]2(c2ccccc2)Oc2cc(N(CC)CC)ccc21 (stereo not shown),toluene,,absorption maximum,472 nm
CC(C)(C)NC(=O)C1CCN(Cc2cccc(/N=N/c3ccc(F)cc3F)c2)CC1,DMSO,"25 µM, 25 °C","absorption maximum, cis isomer",432 nm
CCN(CC)c1ccc2c(c1)O[B-]1(c3ccccc3)OC(=O)C(c3ccccc3)=N[N+]1=C2C(C)C (stereo not shown),toluene,,absorption maximum,474 nm
CCCCN1C(=O)c2cccc3c(NCCCCCCN4CCOCC4)ccc(c23)C1=O,DMSO,,absorption maximum,446 nm

# For quick reference, copied from above:
Structure (SMILES),test system,conditions,measurement,result
COc1ccc2c(c1)O[B-]1(c3ccccc3)OC(=O)C(c3ccccc3)=N[N+]1=C2 (stereo not shown),toluene,,absorption maximum,427 nm
CCCCN1C(=O)c2cccc3c(NCCCCCCCCN4CCOCC4)ccc(c23)C1=O,dichloromethane,,absorption maximum,428 nm
